Measurements collected from several papers.
Compare with care: the assays were run in different laboratories. Numbers after ± are the reported error.
Chain of UniProt Q5T4S7 (whole entry, looked up): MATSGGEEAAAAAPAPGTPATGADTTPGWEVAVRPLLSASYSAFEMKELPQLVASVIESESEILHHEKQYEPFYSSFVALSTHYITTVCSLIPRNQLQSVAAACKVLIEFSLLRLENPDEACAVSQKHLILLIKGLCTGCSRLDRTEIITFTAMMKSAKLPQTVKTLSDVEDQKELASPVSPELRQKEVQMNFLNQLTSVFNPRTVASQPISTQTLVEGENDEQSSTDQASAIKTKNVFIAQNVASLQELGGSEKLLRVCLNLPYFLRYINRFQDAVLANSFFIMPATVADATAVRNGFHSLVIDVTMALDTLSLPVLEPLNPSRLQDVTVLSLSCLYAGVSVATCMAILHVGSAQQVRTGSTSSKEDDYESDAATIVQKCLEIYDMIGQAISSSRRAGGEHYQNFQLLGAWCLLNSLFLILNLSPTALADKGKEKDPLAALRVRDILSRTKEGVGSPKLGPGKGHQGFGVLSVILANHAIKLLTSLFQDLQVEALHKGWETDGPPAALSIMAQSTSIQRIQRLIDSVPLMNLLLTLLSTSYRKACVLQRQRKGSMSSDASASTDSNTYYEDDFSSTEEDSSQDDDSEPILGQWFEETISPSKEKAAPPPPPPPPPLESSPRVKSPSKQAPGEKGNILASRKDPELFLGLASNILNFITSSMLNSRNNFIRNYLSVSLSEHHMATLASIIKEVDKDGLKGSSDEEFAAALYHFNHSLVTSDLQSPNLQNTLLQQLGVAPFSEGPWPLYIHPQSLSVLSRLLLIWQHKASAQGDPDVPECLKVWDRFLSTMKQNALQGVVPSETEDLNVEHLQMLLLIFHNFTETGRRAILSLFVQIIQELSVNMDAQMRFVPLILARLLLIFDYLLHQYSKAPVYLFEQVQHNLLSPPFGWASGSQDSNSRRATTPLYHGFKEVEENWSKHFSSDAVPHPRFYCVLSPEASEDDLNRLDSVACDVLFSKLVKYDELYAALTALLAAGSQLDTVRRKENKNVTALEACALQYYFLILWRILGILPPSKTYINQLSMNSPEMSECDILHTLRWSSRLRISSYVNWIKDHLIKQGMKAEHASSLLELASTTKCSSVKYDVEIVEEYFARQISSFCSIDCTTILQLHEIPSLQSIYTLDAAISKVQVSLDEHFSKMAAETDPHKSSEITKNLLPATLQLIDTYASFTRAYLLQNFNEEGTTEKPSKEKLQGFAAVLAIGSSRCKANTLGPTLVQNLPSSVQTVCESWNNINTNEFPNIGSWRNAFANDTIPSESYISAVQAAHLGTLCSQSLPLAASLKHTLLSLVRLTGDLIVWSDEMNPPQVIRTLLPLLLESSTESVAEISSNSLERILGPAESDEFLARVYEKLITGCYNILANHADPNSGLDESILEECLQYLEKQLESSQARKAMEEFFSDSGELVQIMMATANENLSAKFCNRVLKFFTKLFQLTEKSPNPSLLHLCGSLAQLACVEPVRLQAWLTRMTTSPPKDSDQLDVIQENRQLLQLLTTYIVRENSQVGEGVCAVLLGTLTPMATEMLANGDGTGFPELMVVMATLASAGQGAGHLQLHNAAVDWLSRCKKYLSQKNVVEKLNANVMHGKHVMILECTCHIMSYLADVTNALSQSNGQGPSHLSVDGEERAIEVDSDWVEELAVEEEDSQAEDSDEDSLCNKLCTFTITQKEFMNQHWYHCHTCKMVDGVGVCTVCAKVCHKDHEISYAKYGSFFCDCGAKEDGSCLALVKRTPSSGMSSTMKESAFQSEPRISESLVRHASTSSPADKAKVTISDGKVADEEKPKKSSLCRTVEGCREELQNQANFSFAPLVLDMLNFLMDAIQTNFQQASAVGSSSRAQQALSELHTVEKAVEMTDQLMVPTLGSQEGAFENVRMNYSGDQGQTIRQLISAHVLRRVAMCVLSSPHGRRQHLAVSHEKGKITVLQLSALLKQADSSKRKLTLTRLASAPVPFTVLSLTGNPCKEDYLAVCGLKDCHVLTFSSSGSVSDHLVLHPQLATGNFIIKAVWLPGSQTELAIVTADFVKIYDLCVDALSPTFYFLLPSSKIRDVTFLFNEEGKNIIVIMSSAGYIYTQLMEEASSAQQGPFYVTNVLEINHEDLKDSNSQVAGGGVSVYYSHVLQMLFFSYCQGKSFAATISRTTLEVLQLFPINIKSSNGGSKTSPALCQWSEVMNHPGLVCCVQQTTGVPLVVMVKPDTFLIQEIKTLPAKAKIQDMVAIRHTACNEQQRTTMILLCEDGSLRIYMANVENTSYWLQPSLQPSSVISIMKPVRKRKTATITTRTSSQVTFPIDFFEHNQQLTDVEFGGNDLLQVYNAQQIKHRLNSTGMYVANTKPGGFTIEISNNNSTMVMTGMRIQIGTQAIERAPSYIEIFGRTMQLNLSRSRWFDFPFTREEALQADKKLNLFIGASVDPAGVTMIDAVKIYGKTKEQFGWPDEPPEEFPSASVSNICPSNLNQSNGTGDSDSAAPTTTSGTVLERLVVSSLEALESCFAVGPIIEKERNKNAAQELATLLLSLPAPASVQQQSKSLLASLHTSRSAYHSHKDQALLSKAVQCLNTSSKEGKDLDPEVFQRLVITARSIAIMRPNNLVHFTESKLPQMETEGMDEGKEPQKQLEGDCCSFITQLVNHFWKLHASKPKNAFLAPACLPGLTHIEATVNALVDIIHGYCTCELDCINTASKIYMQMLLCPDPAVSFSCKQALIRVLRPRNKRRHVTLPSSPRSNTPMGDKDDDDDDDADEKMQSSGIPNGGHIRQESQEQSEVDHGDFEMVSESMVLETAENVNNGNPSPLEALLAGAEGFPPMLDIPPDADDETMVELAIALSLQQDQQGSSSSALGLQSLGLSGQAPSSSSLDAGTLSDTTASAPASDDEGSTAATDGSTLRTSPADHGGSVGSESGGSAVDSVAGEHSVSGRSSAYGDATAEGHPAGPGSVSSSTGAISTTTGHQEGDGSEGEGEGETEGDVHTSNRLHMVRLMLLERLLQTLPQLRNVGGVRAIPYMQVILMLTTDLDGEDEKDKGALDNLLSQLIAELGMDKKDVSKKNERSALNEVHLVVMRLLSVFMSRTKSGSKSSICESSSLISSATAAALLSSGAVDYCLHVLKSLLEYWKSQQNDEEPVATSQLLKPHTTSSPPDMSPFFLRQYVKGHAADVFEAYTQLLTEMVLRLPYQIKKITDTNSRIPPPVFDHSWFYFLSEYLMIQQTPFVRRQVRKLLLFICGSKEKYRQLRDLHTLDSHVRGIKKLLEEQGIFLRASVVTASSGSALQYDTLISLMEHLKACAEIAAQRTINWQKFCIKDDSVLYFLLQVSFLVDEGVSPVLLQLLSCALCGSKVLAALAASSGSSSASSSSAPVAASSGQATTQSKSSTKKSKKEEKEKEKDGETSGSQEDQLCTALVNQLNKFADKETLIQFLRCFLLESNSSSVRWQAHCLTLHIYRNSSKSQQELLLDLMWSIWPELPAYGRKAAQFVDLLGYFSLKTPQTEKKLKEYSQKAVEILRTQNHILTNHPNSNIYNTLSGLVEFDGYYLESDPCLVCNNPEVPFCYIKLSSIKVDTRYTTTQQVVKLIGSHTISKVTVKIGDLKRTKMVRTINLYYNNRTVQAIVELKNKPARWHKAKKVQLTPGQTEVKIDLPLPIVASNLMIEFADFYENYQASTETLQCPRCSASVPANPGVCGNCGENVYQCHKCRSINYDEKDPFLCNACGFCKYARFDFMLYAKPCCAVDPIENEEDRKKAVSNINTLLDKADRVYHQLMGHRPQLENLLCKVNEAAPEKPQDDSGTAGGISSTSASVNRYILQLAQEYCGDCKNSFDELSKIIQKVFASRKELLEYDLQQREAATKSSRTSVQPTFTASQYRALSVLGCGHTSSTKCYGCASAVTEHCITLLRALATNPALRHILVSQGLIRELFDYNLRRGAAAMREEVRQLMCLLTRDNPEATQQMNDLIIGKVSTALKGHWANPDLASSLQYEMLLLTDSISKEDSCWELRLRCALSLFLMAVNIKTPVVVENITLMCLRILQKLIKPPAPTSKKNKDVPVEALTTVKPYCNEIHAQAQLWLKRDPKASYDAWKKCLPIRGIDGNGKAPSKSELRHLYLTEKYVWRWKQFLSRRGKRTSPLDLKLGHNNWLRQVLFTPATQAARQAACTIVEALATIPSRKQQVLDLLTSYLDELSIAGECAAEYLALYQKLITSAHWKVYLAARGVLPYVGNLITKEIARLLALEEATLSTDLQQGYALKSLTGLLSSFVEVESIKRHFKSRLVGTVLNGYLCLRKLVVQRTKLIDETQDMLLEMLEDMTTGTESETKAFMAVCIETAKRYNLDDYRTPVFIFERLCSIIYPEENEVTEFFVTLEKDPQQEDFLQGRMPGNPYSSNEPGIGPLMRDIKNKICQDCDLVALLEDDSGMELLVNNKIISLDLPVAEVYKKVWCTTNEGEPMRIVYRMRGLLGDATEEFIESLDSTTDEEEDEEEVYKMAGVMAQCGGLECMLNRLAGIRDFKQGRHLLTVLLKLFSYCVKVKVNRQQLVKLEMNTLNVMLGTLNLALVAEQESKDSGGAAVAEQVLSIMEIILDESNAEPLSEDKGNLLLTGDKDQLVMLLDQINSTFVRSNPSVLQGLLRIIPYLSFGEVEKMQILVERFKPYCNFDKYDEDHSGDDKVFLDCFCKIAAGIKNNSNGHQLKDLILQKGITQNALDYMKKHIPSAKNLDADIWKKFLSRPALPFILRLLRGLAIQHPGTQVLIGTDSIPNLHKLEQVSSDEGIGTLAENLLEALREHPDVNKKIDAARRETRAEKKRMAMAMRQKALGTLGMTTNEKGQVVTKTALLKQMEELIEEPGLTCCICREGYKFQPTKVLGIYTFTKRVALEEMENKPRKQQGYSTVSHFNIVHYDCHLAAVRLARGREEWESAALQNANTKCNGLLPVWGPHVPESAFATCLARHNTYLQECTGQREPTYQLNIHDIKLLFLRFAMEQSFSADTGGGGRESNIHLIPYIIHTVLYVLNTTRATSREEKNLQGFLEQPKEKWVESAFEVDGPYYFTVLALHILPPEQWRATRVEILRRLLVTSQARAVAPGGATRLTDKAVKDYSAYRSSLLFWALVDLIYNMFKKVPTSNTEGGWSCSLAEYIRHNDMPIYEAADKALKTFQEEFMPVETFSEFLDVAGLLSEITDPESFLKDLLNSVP

With `Cc1ccccc1CN1C(=O)c2ccccc2Sc2ccc(C(=O)NCCCN3CCOCC3)cc21` the maximum response was -9.96% (Vero-E6; CellTiter-Glo ATP; 72 h, first round 5-point; reference: DMSO 0%, hyamine -100%, more negative, more toxic).
Under “ALT increased, any grade”, `C=CC(=O)N1CC[C@H](n2nc(C#Cc3cc(OC)cc(OC)c3)c3c(N)ncnc32)C1` is recorded as 18.6% (human patients, all; oral, dose not given, QD regimen, adverse drug reaction).
`CC1(C)[C@H](C(=O)OCc2cccc(Oc3ccccc3)c2)[C@@H]1C=C(Cl)Cl`: “hepatic intrinsic clearance” 668 L/h/kg liver (IVIVE scaling; human adult).
For `O=c1cc(-c2ccc(O)cc2)oc2c([C@@H]3OC[C@H](O)[C@H](O)[C@H]3O)c(O)c([C@@H]3O[C@H](CO)[C@@H](O)[C@H](O)[C@H]3O)c(O)c12`, heart rate read “no effect” (HFpEF mice; oral, 20 and 40 mg/kg/day).
`c1csc(CNc2cc[nH]n2)c1`: “micronucleated PCE per 1000 PCE” 0.8 (micronucleus; CD-1 mouse Hsd:ICR(CD-1), male, bone marrow; oral, 500 mg/kg/day, 3 days).
For `COc1ccc(C[C@@H]2NC(=O)[C@H]([C@@H](C)O)NC(=O)[C@@H]3[C@@H]4CCN3C(=O)[C@@H]3Cc5cn(c6ccc(F)cc56)CCCCCCN(Cc5ccc(cc5)CCNC(=O)[C@]5(C)CCCN5C2=O)C(=O)CCC(=O)N[C@@H](C)C(=O)N[C@H](CNC(=O)CCCCC[N+](C)(C)C)C(=O)N[C@@H](Cc2cccc(c2)CNC(=O)CO4)C(=O)N3)cc1`, “participants with adverse event” read 0% (measured: Erythema; humans; concentration not given, Study-003).
For `O=S(=O)(Nc1ccccc1)c1ccc(NC(=S)Nc2ccccc2)cc1`, “blood cell fraction” read 16.6% (measured: RDW; male mouse, blood; oral, 80 mg/kg daily, 14 days).
For `C[C@H]1CN(c2n[nH]c3nc(N[C@H]4CC[C@H](NS(=O)(=O)CCC(F)(F)F)CC4)ncc23)CCO1`, the relative abundance was 1.22 (UBR4 (Homo sapiens, UniProt Q5T4S7); inhibitor, Kinobeads competition profiling; 20 µM; reference: vehicle).
With `C[C@H](NC(=O)c1c(C(F)F)nn(C)c1Oc1cccc(C(F)(F)F)c1)c1ccc(C(=O)O)cc1` the AUC(0-t) was 963 ng·h/mL (human, plasma; 125 mg, cycle 1 day 8, mean).
For `CN1CCN(S(=O)(=O)c2cc([N+](=O)[O-])ccc2N(CCOS(C)(=O)=O)CCOS(C)(=O)=O)CC1`, the concentration was 500 nM (NSG mice female, plasma; intraperitoneal, 25 mg/kg, 1 h).
`CC(=O)c1c(C)c2cnc(Nc3ccc(C4CCN(CCS(C)(=O)=O)CC4)cn3)nc2n(C2CCCC2)c1=O` gave a Cmax of 333 ng/mL (beagle dog, male, fasted, blood; oral gavage, 15 mg/kg, acidified methylcellulose vehicle).
`COc1ccc(-c2c(-c3ccc(C#N)c(F)c3)nc(N3CCC(N)CC3)n(C)c2=O)cc1F`: “treatment-related adverse event incidence” 0% (measured: Pruritus; neuroendocrine neoplasm patients; oral, 60 mg, grade 3 to 4, dose expansion).
`C[C@@H]1COCCN1c1cc(C2([S@](C)(=N)=O)CC2)nc(-c2cc[nH]c3nccc2-3)n1` — result for “discontinuation due to adverse event”: 0 % patients (patients, advanced solid tumours; oral, 40 mg twice daily, 10 days, together with: carboplatin).
`COC[C@@H](CC(C)C)NC(=O)c1ccc(C)c(C)c1`: “micronucleated PCE per 1000 PCE” 0.1 (Hsd:ICR (CD-1) mouse, male, bone marrow; oral, 2000 mg/kg, 24 h).
For `Nc1nc2cc(-c3ccc4ncc(C(=O)N5CCOCC5)n4c3)ccc2o1`, the MTD was 900 mg (human, advanced solid tumours; intermittent schedule).
For `COc1cc2c(Oc3ccc4[nH]c(C)cc4c3F)ccnc2cc1OCC1(N)CC1`, “grade 1 or 2 TBIL elevation” read 0% (paediatric recurrent refractory sarcoma; 12 mg).
Under “metabolite over parent AUC(0-24) ratio”, `O=C(O)C(O)(c1cccs1)c1cccs1` is recorded as 0.199 (human, plasma; oral, 50 mg once daily, 5 days, median; reference: metabolite over parent).
Under “patients with grade ≥3 TEAE”, `O=C1Nc2cc3[nH]nc(-c4ccncc4)c3cc2CN1Cc1ccccc1` is recorded as 7% (measured: infusion-related reaction; patients with advanced solid tumours; intravenous, dose not given).
For `Cn1c(-c2ccc(C(N)=O)cc2F)nnc1C(C)(C)Oc1c(F)cc(Cl)cc1F`, “gastrointestinal disorder TEAE” read 0% (human; oral, 10 mg, single ascending dose).
`C[C@@H]1NC(=O)[C@H](CCCCNC(=O)CO/N=C/C(=O)NCCCC[C@@H]2NC(=O)[C@@H](Cc3ccccc3)NC(=O)[C@H](CC(=O)O)NC(=O)CNC(=O)[C@H](CCCNC(=N)N)NC2=O)NC(=O)CNC(=O)[C@@H]2CCCN2C(=O)[C@H](CCCCNC(=O)CO/N=C/C(=O)NCCCC[C@@H]2NC(=O)[C@@H](Cc3ccccc3)NC(=O)[C@H](CC(=O)O)NC(=O)CNC(=O)[C@H](CCCNC(=N)N)NC2=O)NC(=O)[C@H](CCCCNC(=O)CN2CCCNCCNCCCNCC2)NC(=O)[C@H](CCCCNC(=O)CO/N=C/C(=O)NCCCC[C@@H]2NC(=O)[C@@H](Cc3ccccc3)NC(=O)[C@H](CC(=O)O)NC(=O)CNC(=O)[C@H](CCCNC(=N)N)NC2=O)NC(=O)CNC(=O)[C@@H]2CCCN2C(=O)[C@H](CCCCNC(=O)CO/N=C/C(=O)NCCCC[C@@H]2NC(=O)[C@@H](Cc3ccccc3)NC(=O)[C@H](CC(=O)O)NC(=O)CNC(=O)[C@H](CCCNC(=N)N)NC2=O)NC1=O` [copper-64 labelled] has a tissue uptake of 0.06 ± 0.01 %ID/g (normal mice, blood; intravenous, 0.74 MBq, 24 h post-injection).
For `CC(C)C(=O)OC[C@H]1O[C@@H](n2ccc(NO)nc2=O)[C@H](O)[C@@H]1O`, the bench-top stability was 102 ± 2.21% (rat amniotic fluid dialysate; 250 ng/mL, 6 h, room temperature, high concentration, together with: NHC 1000 ng/mL).
`CC(C)[C@@H]1NC(=O)CNC(=O)[C@H](CC(N)=O)NC(=O)[C@H](CCCNC(=N)N)NC(=O)[C@H](Cc2ccc(O)cc2)NC(=O)[C@H](C(C)C)NC(=O)[C@@H](NC(=O)[C@@H](NC(=O)[C@H](CC(N)=O)NC(=O)[C@H](Cc2c[nH]c3ccccc23)NC(=O)[C@H](C)NC(=O)[C@H](Cc2ccccc2)NC(=O)CN)C(C)C)CSSC[C@@H](C(=O)N[C@@H](Cc2cnc[nH]2)C(=O)N[C@@H](CCCNC(=N)N)C(=O)N[C@@H](CCCNC(=N)N)C(=O)N[C@@H](C)C(=O)N[C@@H](CC(N)=O)C(N)=O)NC(=O)[C@H](C(C)C)NC(=O)[C@H](CCCNC(=N)N)NC1=O` has a glucose of 1.52 ± 0.06 mmol/L (ICR mouse, blood; intramammary, 10 mg/kg, day 5, 3 d dosing).
`C[C@@H](O)[C@@H]1NC(=O)CNC(=O)[C@H](Cc2c[nH]cn2)NC(=O)[C@H](Cc2c[nH]c3ccccc23)NC(=O)[C@H](CC(N)=O)NC(=O)CNC(=O)C[C@@H](C(=O)N[C@@H](Cc2c[nH]c3ccccc23)C(=O)N[C@@H](Cc2ccccc2)C(=O)N[C@@H](Cc2ccccc2)C(=O)N[C@@H](CC(N)=O)C(=O)N[C@@H](Cc2ccc(O)cc2)C(=O)N[C@@H](Cc2ccc(O)cc2)C(=O)N[C@@H](Cc2c[nH]c3ccccc23)C(=O)O)NC(=O)[C@@H]2CCCN2C(=O)[C@H](CO)NC1=O` has a Vz of 0.73 L/kg (male CD-1 mouse; intravenous, 3 mg/kg).
For `CO[C@H]1C[C@@H]2CC[C@@H](C)[C@@](O)(O2)C(=O)C(=O)N2CCCC[C@H]2C(=O)O[C@H]([C@H](C)C[C@@H]2CC[C@@H](OC(=O)NCCOCCOCCOCCOCCOCCOCCOCCOCCC(=O)N3CCc4cc(Cn5nc(-c6ccc7oc(N)nc7c6)c6c(N)ncnc65)ccc4C3)[C@H](OC)C2)C[C@@H](O)[C@H](C)/C=C(\C)[C@@H](O)[C@@H](OC)C(=O)[C@H](C)C[C@H](C)/C=C/C=C/C=C/1C`, “dose-reducing adverse events” read 0% (phase 1 dose escalation, measured: neutropenia; advanced solid tumour patients; intravenous, 12 mg weekly, any grade).
For `COc1ncccc1-c1cnn2ccc(N3CCN(C(=O)OC(C)C)CC3)nc12`, the drug concentration was 9 nM (rat, thermal hyperalgesia model, plasma; oral, 0.1 mg/kg, 180 min).
Under “mean platelet volume”, `CC(C)C[C@H](NC(=O)[C@H](CCCCN)NC(=O)OCC1c2ccccc2-c2ccccc21)C(=O)N[C@H](C(=O)N[C@@H](Cc1ccccc1)C(=O)N[C@@H](Cc1ccccc1)C(=O)N[C@@H](CCCCN)C(=O)NCC(=O)N[C@@H](Cc1ccccc1)C(=O)N[C@@H](C)C(=O)N[C@@H](Cc1c[nH]c2ccccc12)C(=O)N[C@@H](CC(N)=O)C(=O)N[C@H](C(=O)N[C@H]1CSSC[C@@H](C(=O)N[C@@H](Cc2c[nH]cn2)C(=O)N[C@@H](CCCNC(=N)N)C(=O)N[C@@H](CCCNC(=N)N)C(=O)N[C@@H](C)C(=O)N[C@@H](CC(N)=O)C(N)=O)NC(=O)[C@H](C(C)C)NC(=O)[C@H](CCCNC(=N)N)NC(=O)[C@H](C(C)C)NC(=O)CNC(=O)[C@H](CC(N)=O)NC(=O)[C@H](CCCNC(=N)N)NC(=O)[C@H](Cc2ccc(O)cc2)NC(=O)[C@H](C(C)C)NC1=O)C(C)C)C(C)C` is recorded as 6.86 ± 0.35 fL (ICR mice, blood; intraductal mammary, 5 mg/kg, day 5).
The neutrophil count of `COc1ccc2nc3cc(Cl)ccc3c(Nc3cc(CN4CCCC4)c(O)c(CN4CCCC4)c3)c2n1` is reported as 1.88 10⁹/L (mouse, blood; intraperitoneal, 57 mg/kg).
`CCS(=O)(=O)Nc1ccc(Oc2ccc(F)cc2F)c(-c2cn(C)c(=O)c3[nH]ccc23)c1`: “treatment-emergent adverse events” 0% (febrile neutropenia leading to discontinuation; human, relapsed/refractory AML; oral, dose not given).
`Cn1nc(NS(C)(=O)=O)c2c(Cl)ccc(-n3c([C@H](Cc4cc(F)cc(F)c4)NC(=O)Cn4nc(C(F)F)c5c4C(F)(F)[C@@H]4C[C@H]54)nc4nc(OCCC(F)(F)F)ccc4c3=O)c21` — result for “participants with graded LDL-C increases”: 25% (human; dose not given).
Under “patients with adverse event”, `C[C@@H]1OC(=O)NN=C1c1ccc(-c2ccc(F)cc2)c(C(F)(F)F)c1` is recorded as 0% (phase I trial, measured: Nausea worst grade 1; human patients; 5 mg once daily).
For `O=C(Nc1ccccc1)C1CCN(C(=O)Oc2cccnc2)CC1`, “adverse event Malaise” read 0% (healthy women; oral, 20 mg, 7 days).
`C=CC(=O)Nc1cc(Nc2nccc(Nc3cc(Cl)c(F)cc3C(C)(C)O)n2)c(OC)cc1N1CC[C@@H](N(C)C)C1` — result for “amylase increased TEAE”: 13.7% (human; oral, dose not given).
Under “ALT serum activity”, `CCc1ccc(CC/C=C/c2ccc3c(c2)C(=O)CC3)cc1` is recorded as 53.3 U/L (Sprague-Dawley rat, male; oral, 30 mg/kg/day, 14 days).
Under “final permeate concentration”, `CC(C)(c1ccc(O)cc1)c1ccc(O)cc1` is recorded as 9.02 nM (ultrafiltration; cow milk whey; 200 nM nominal in whole milk).
Under “subjects with any TEAE”, `C[C@]1(CO)Cc2ncn(-c3ccc(C#N)c(Cl)c3)c2C(=O)O1` is recorded as 57.1% (human; 20 mg single dose).
`CN1CC[C@@H](c2c(O)cc(O)c3c(=O)cc(-c4ccc(C(F)(F)F)cc4Cl)oc23)[C@@H]1CO` — result for “adverse event incidence”: 17.5% (measured: Anemia; relapsed or refractory haematological malignancies; oral, dose not given, grade ≥3).
`[O-][S+]1CCc2nc(N3CCC(c4ncc(Cl)cn4)CC3)nc(NC3(CO)CCC3)c21` (stereo not shown): “adverse event incidence” 0% (measured: abdominal distension; healthy male humans; 6 mg twice daily).
`CCCCCCCCCCCCCCCC(=O)N[C@@H](CCC(=O)NCCCC[C@H](NC(=O)[C@H](CC(=O)O)NC(=O)[C@H](CO)NC(=O)[C@@H](NC(=O)[C@H](Cc1ccccc1)NC(=O)[C@@H](NC(=O)CNC(=O)[C@H](CCC(N)=O)NC(=O)[C@H](CO)NC(=O)[C@@H](N)Cc1c[nH]cn1)[C@@H](C)O)[C@@H](C)O)C(=O)N[C@@H](CO)C(=O)N[C@@H](CCC(=O)O)C(=O)N[C@@H](Cc1ccc(O)cc1)C(=O)N[C@@H](CC(C)C)C(=O)N[C@@H](CC(=O)O)C(=O)N[C@@H](CO)C(=O)N[C@@H](CCC(=O)O)C(=O)N[C@@H](CCCNC(=N)N)C(=O)N[C@@H](C)C(=O)N[C@@H](CCCNC(=N)N)C(=O)N[C@@H](CC(=O)O)C(=O)N[C@@H](Cc1ccccc1)C(=O)N[C@H](C(=O)N[C@@H](C)C(=O)N[C@@H](Cc1c[nH]c2ccccc12)C(=O)N[C@@H](CC(C)C)C(=O)N[C@@H](CCC(=O)O)C(=O)N[C@@H](C)C(=O)NCC(=O)NCC(=O)O)C(C)C)C(=O)O`: “treatment-related adverse events” 25% (measured: Headache; humans CrCl 20 to 30 mL/min; subcutaneous, 100 µg single dose).
With `CCC[C@@](N)(CO)CCc1ccc(OCCCCCC(C)C)cc1` the AUC(0-inf) was 18.1 µM·h (dog; oral, 10 mg/kg).
The organ weight of `O=C(O)CCCOc1ccc(F)cc1-c1cc(-c2ccccc2C(F)(F)F)n(-c2ccccc2)n1` is reported as 1.69 ± 0.1 g (female Crl:CD(SD) rats, kidneys; intravenous, 25 µg/kg, 1 d).

For quick reference, copied from above:
Under “ALT increased, any grade”, `C=CC(=O)N1CC[C@H](n2nc(C#Cc3cc(OC)cc(OC)c3)c3c(N)ncnc32)C1` is recorded as 18.6% (human patients, all; oral, dose not given, QD regimen, adverse drug reaction).
`[O-][S+]1CCc2nc(N3CCC(c4ncc(Cl)cn4)CC3)nc(NC3(CO)CCC3)c21` (stereo not shown): “adverse event incidence” 0% (measured: abdominal distension; healthy male humans; 6 mg twice daily).
The organ weight of `O=C(O)CCCOc1ccc(F)cc1-c1cc(-c2ccccc2C(F)(F)F)n(-c2ccccc2)n1` is reported as 1.69 ± 0.1 g (female Crl:CD(SD) rats, kidneys; intravenous, 25 µg/kg, 1 d).
